Published values from different studies.
Each line is one published result; not all experiments were run side by side. Several values in a cell are separate wells, animals, samples, runs or records.
Target: Casein kinase II subunit alpha' (CSNK2A2, Homo sapiens, UniProt P19784)

Compound	test	system	setting	how to read	quantity	result
O=C(Cc1ccc(OCc2ccccc2)cc1)NC1(C(=O)O)CCN(C(=O)c2ccc(-c3cccc(Cl)c3)cc2)CC1	enzyme activity, inhibitor		10 µM		activity vs control	110%
C=CC(=O)N1CCCC(n2c(=O)c3ncccc3n(Cc3ccc(Oc4ccccc4)cc3)c2=O)C1 (stereo not shown)	cell-free assay, competition with immobilised ligand		1 µM		remaining binding	100%
O=C=[N][Ru-4]123([n]4c5ccc(O)cc5c5c6c(c7cc(F)c[n+]1c7c54)C(=O)NC6=O)[S+]1CC[S+]2CC[S+]3CC1 (stereo not shown)	enzyme activity		100 nM, human enzyme, together with: 10 µM ATP	relative to: untreated	remaining activity	107%
Nc1ncc2c(n1)-c1c([nH]c3ccc(C4=CCOCC4)cc13)CCC2	binding, competition with immobilised ligand		1 µM		remaining binding	56%
O=C(O)CCC(=O)c1cccc(NS(=O)(=O)c2c[nH]c3ncccc23)c1	kinase activity, radiometric		10 µM		remaining activity	112%
CN1CCN(Cc2ccc(-c3ccc(CO[C@H]4CCC[C@@H]4NC(=O)c4cc(-c5cnn(C)c5)cnc4N)cc3)cc2)CC1	enzyme activity, inhibitor		0.1 µM		inhibition	9%
COc1cc(Nc2nc(C)cc(-c3cnn4nc(OC)ccc34)n2)cc(C(F)(F)F)c1	inhibitor		1 µM	relative to: control	remaining activity	59%
N[C@H]1CC[C@H](Nc2nccc(-c3cccnc3Oc3ccc(NC(=O)NC4CC4)c4ccccc34)n2)CC1	kinobead competition pulldown	HEK293/HCT116 lysate mixture	10 µM, 1 h, 4 °C	lower = stronger competition	log2 LFQ intensity	31.2 and 31 and 30.9
CNC(=O)C[C@H](Cc1ccc(C#N)cc1)NC(=O)c1cc(-c2ccc(CN[C@H](C)c3ccc(C)cc3)o2)ccc1Cl	enzyme activity, inhibitor		1 µM		activity vs control	107%
CCn1cc(C(=O)O)c(=O)c2c(N)c(F)c(NC3CCCCC3)cc21	kinase activity		0.1 µM, together with: ATP at Km		inhibition	-5.1%
COC(=O)[C@@]1(C)C=C(C(=O)Nc2cccc(C(=O)Nc3ccc(Nc4nccc(-c5cccnc5)n4)c(C)c3)c2)C(=O)CC1	enzyme activity, inhibitor, radiometric		1 µM		remaining activity	99%
Nc1ncc(-c2cc(-c3cnn(CC(F)(F)F)c3)ncc2F)nc1C(=O)NC1CNCC(F)C1 (stereo not shown)	enzyme activity		1 µM	relative to: DMSO control	remaining activity	91.2%
NC(=O)C[C@H]1CCc2sc3ncnc(O[C@H]4CC[C@H](N5CCOCC5)CC4)c3c21	enzyme activity, inhibitor		10 µM		inhibition	12%

Excerpt of the above:
Compound	test	system	setting	how to read	quantity	result
O=C(O)CCC(=O)c1cccc(NS(=O)(=O)c2c[nH]c3ncccc23)c1	kinase activity, radiometric		10 µM		remaining activity	112%
NC(=O)C[C@H]1CCc2sc3ncnc(O[C@H]4CC[C@H](N5CCOCC5)CC4)c3c21	enzyme activity, inhibitor		10 µM		inhibition	12%
